Measured values gathered from unrelated publications.
Each numbered part is a random draw from the data of one study; scales do not carry over between parts.
UniProt Q12866, sequence (whole entry, looked up): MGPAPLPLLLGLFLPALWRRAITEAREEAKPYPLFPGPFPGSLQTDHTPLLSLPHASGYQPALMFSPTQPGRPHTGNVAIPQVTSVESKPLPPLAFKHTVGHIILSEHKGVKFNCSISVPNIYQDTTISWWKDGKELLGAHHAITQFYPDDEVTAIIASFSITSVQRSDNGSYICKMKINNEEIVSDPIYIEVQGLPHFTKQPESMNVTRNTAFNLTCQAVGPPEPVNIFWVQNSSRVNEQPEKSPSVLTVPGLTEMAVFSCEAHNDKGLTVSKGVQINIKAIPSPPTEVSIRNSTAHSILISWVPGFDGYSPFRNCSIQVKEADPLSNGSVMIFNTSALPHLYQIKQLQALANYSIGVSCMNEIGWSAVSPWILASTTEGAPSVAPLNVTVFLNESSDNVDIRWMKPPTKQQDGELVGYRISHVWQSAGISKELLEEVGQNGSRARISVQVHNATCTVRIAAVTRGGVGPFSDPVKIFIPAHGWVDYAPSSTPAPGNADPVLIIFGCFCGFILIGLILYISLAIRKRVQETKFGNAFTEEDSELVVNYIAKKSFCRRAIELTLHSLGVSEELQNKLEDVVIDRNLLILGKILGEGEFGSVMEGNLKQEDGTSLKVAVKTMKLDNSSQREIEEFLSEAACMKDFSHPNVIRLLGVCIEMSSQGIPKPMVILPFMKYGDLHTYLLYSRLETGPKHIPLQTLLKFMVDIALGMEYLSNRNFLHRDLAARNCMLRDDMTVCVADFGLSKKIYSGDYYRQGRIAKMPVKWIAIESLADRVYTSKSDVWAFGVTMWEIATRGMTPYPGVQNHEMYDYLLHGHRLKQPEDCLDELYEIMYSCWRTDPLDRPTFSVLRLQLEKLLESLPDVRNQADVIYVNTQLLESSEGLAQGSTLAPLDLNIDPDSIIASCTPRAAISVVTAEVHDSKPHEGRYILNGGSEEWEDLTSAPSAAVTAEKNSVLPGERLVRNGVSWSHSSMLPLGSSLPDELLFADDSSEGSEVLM
UniProt Q99558, sequence (whole entry, looked up): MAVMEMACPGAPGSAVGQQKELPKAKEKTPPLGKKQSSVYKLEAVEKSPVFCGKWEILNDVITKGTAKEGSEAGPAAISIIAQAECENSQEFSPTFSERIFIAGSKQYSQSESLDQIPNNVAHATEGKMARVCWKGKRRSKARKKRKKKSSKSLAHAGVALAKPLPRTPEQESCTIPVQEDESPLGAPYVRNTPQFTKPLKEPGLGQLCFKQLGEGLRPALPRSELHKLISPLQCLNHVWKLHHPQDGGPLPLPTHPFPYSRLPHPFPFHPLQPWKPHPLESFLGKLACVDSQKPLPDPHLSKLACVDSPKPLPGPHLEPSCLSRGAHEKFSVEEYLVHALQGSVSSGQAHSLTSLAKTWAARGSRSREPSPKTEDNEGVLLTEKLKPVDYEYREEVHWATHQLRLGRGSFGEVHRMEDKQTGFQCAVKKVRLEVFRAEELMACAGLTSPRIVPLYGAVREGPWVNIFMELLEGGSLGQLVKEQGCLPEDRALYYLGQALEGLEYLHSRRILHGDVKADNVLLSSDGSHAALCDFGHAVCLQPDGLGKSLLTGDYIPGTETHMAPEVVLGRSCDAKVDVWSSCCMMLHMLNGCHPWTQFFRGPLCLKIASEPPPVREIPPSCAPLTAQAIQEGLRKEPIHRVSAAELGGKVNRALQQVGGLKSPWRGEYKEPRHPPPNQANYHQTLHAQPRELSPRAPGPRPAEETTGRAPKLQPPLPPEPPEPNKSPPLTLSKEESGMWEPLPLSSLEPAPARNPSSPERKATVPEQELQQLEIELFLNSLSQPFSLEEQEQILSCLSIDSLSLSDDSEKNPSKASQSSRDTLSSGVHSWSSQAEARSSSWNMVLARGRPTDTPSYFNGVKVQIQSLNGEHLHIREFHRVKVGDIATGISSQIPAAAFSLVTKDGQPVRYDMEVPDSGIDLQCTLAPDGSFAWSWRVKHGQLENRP
UniProt Q9HAZ1, sequence (whole entry, looked up): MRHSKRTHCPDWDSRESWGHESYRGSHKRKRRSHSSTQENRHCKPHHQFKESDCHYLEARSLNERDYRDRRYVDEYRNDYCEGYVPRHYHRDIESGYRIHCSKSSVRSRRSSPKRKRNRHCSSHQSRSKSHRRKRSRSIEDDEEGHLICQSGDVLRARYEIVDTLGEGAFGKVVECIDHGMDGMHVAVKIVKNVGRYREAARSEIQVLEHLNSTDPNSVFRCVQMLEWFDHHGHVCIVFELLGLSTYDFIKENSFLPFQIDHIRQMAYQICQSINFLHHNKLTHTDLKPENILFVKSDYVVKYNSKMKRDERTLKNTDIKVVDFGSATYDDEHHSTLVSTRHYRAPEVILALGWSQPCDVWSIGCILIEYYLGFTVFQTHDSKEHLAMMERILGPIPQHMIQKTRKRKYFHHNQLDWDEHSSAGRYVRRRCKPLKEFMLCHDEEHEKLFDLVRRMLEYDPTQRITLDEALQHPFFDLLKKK
UniProt Q13188, sequence (whole entry, looked up): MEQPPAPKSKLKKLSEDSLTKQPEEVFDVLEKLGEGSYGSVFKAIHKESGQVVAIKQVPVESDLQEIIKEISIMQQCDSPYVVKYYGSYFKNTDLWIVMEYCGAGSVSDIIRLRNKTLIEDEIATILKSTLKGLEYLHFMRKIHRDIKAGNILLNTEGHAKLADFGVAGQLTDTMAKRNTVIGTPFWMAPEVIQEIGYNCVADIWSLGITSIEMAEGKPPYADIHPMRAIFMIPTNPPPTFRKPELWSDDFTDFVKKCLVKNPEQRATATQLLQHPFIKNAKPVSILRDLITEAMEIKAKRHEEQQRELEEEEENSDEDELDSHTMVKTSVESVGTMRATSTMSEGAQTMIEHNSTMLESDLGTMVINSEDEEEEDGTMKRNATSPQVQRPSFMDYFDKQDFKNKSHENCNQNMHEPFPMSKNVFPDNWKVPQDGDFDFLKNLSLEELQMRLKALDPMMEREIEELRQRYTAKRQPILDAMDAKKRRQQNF
UniProt P42685, sequence (whole entry, looked up): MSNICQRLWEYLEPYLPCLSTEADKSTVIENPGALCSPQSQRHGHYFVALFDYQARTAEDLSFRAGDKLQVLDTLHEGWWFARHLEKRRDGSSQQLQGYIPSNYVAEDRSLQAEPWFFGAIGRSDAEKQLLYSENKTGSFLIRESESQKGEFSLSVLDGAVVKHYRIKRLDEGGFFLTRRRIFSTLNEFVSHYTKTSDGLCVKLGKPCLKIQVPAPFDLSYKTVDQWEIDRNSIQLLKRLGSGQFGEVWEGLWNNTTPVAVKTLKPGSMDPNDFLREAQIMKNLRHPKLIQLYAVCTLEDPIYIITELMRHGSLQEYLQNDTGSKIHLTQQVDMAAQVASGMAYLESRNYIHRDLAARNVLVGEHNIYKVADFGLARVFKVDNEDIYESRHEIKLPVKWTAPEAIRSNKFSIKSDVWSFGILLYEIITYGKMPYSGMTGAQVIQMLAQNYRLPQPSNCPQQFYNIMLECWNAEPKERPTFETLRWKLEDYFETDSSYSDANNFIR
UniProt P0C264, sequence (whole entry, looked up): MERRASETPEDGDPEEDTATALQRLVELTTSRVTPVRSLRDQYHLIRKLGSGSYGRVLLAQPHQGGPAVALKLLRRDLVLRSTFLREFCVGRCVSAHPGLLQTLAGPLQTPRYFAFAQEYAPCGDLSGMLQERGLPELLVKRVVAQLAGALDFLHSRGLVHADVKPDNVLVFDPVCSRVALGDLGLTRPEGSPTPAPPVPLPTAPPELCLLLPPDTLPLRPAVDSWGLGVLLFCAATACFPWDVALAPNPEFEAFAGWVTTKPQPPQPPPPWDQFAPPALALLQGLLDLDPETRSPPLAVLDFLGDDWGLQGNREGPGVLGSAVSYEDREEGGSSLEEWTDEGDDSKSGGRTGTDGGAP
UniProt P06239, sequence (whole entry, looked up): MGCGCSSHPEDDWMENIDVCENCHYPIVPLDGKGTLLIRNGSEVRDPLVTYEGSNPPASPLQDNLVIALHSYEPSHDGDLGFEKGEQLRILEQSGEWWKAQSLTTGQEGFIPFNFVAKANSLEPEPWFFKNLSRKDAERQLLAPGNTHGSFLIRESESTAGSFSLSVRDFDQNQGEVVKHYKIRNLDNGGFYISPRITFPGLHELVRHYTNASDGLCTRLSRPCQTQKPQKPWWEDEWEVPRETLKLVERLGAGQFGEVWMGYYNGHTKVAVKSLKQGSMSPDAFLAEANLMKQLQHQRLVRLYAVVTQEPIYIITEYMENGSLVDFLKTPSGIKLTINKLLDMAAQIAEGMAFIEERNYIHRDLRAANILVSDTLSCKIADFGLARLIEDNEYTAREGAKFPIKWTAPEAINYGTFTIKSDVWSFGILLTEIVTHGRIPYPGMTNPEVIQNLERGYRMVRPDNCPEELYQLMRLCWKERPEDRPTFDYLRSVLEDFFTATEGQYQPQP
UniProt P78368, sequence (whole entry, looked up): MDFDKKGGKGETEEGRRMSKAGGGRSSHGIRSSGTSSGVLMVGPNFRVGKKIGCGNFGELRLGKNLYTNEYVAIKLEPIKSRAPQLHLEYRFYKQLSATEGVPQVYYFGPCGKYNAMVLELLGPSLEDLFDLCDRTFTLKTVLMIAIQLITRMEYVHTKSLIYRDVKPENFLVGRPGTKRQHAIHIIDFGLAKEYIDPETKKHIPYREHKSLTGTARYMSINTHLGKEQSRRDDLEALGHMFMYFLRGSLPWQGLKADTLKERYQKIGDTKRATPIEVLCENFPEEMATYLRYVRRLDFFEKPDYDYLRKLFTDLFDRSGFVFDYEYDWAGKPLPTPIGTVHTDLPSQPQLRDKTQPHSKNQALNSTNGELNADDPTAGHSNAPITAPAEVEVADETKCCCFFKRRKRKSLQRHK

Block 1 — Compound: CCOc1nc(NC(=O)Cc2cc(OC)ccc2OC)cc(N)c1C#N; read-out: enzyme activity; mode: inhibitor; tested at: 0.5 µM; reference: control; endpoint: remaining activity
MAPK3 (Homo sapiens, UniProt P27361): 96%
ULK3 (Homo sapiens, UniProt Q6PHR2): 104%
MAP3K5 (Homo sapiens, UniProt Q99683): 92.8%
RPS6KA2 (Homo sapiens, UniProt Q15349): 98.8%
ULK2 (Homo sapiens, UniProt Q8IYT8): 110%
LCK (Homo sapiens, UniProt P06239): 102%
GRK7 (Homo sapiens, UniProt Q8WTQ7): 114%
TAOK2 (Homo sapiens, UniProt Q9UL54): 99.4%
CSNK1G2 (Homo sapiens, UniProt P78368): 100%
MERTK (Homo sapiens, UniProt Q12866): 83.9%
MAP3K14 (Homo sapiens, UniProt Q99558): 108%
FRK (Homo sapiens, UniProt P42685): 103%
NEK1 (Homo sapiens, UniProt Q96PY6): 95.2%
TEK (Homo sapiens, UniProt Q02763): 101%

Block 2 — species: human; medium: microsomes or S9; tested at: 2 µM; time: 0.5 h; endpoint: remaining compound
Cc1ncc(S(=O)(=O)NCCc2nccnc2C)s1: > 100%
Cc1cc(OCC(=O)N(C(C)C)C(C)C)ccc1Cl: 0.283%
CCOc1cc(C(=O)OCc2cc(=O)n3oc(C)cc3n2)cc(OCC)c1OCC: 0.344%
Cc1ccc(N(C(C)C(=O)N(C)C)S(C)(=O)=O)cc1 (stereo not shown): 53.8%
CCCCC/N=c1\n(C)c(=O)nc2sccn12: 37.8%
CN(C)C(=O)c1sc(Cl)nc1S(N)(=O)=O: 88.5%
CCC1=NOC(CNC(=O)c2cc(C)c(CC)n(C)c2=O)C1 (stereo not shown): 67.8%
Cc1noc(C)c1CCC(=O)Nc1cccc2ncccc12: 69.7%
CC(C)(C)c1n[nH]c(C2CN(C(=O)C3CCOC3)CCO2)n1 (stereo not shown): 42%

Block 3 — cell line: HH; tested at: 2 µM; time: 48 h; reference: untreated; endpoint: viability
CC(C)Nc1cc(-c2c[nH]c(C(=O)N[C@H](CO)c3cccc(Cl)c3)c2)c(Cl)cn1: 71%
Cc1ccc(Nc2nccc(N(C)c3ccc4c(C)n(C)nc4c3)n2)cc1S(N)(=O)=O: 97.7%
COc1ncc(-c2ccc3nccc(-c4ccnnc4)c3c2)cc1NS(=O)(=O)c1ccc(F)cc1F: 40%
O=C1NC(=O)/C(=C/c2cccc(C(F)(F)F)c2)S1: 104%
NC1(c2ccc(-c3nc4ccn5c(=O)[nH]nc5c4cc3-c3ccccc3)cc2)CCC1: 97.5%
CCC[C@H](NC(=O)/C(C#N)=C/c1cccc(Br)n1)c1ccccc1: 67.4%
CO[C@H]1C[C@@H]2CC[C@@H](C)[C@@](O)(O2)C(=O)C(=O)N2CCCC[C@H]2C(=O)O[C@H]([C@H](C)C[C@@H]2CC[C@H](n3cnnn3)[C@H](OC)C2)CC(=O)[C@H](C)/C=C(\C)[C@@H](O)[C@@H](OC)C(=O)[C@H](C)C[C@H](C)/C=C/C=C/C=C/1C: 51.6%
CCCCCCCCc1ccc(CCC(N)(CO)CO)cc1: 90.3%
CNC(=O)c1cc(Oc2ccc(NC(=O)Nc3ccc(Cl)c(C(F)(F)F)c3)c(F)c2)ccn1: 94.5%
COc1cc2c(Nc3ccc(NC(=O)c4ccccc4)cc3)ncnc2cc1OCCCN1CCOCC1: 75.3%

Block 4 — read-out: cell-free assay; method: competition with immobilised ligand; tested at: 1 µM; endpoint: remaining binding
Compound: CO[C@H]1CC[C@H](CNc2ccc(S(=O)(=O)NC(=O)c3ccc(N4CCN(CC5=C(c6ccc(Cl)cc6)CC(C)(C)CC5)CC4)cc3Oc3cnc4[nH]ccc4c3)cc2[N+](=O)[O-])CC1
BMX (Homo sapiens, UniProt P51813): 95%
Tyrosine-protein kinase ABL1, phosphorylated (ABL1, Homo sapiens, UniProt P00519, M351T): 85%
FGFR4 (Homo sapiens, UniProt P22455): 87%
STK3 (Homo sapiens, UniProt Q13188): 85%
SBK3 (Homo sapiens, UniProt P0C264): 83%
KIT (Homo sapiens, UniProt P10721, T670I/V559D): 88%
CLK4 (Homo sapiens, UniProt Q9HAZ1): 58%

Some of these lines once more (block 1):
ULK3 (Homo sapiens, UniProt Q6PHR2): 104%
MAP3K5 (Homo sapiens, UniProt Q99683): 92.8%
RPS6KA2 (Homo sapiens, UniProt Q15349): 98.8%
ULK2 (Homo sapiens, UniProt Q8IYT8): 110%
LCK (Homo sapiens, UniProt P06239): 102%
